Experimental data from different studies.
Compare with care: the assays were run in different laboratories. Numbers after ± are the reported error.
lasR: Transcriptional activator protein LasR (lasR, Pseudomonas aeruginosa, UniProt P25084)
FURIN: Furin (FURIN, Homo sapiens, UniProt P09958)
MAPK8: Mitogen-activated protein kinase 8 (MAPK8, Homo sapiens, UniProt P45983)
HDAC8: Histone deacetylase 8 (HDAC8, Homo sapiens, UniProt Q9BY41)
OXA-48: Beta-lactamase OXA-48 (OXA-48, Klebsiella pneumoniae, UniProt Q6XEC0)
Oprm1: Mu-type opioid receptor (Oprm1, Mus musculus, UniProt P42866)
cyp121: Mycocyclosin synthase (cyp121, Mycobacterium tuberculosis, UniProt P9WPP7)
Orco: Orco (Drosophila melanogaster, UniProt Q9VNB5)

By UniProt entry, the sequences of proteins in these tests, tags left out. Residues count along the entry.
UniProt P25084, 1-173 limits assumed: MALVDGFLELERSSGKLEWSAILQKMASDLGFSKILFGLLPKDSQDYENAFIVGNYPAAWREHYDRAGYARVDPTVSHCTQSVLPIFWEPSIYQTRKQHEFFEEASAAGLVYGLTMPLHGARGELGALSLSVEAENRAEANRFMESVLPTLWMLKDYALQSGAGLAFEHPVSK
UniProt P25084, whole entry: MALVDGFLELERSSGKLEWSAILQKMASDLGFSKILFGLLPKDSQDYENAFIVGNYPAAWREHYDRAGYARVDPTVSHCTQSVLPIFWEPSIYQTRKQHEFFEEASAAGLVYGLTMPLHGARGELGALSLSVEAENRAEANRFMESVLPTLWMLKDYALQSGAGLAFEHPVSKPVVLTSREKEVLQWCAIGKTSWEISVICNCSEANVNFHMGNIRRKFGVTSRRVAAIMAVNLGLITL
UniProt P09958, 108-715 limits assumed: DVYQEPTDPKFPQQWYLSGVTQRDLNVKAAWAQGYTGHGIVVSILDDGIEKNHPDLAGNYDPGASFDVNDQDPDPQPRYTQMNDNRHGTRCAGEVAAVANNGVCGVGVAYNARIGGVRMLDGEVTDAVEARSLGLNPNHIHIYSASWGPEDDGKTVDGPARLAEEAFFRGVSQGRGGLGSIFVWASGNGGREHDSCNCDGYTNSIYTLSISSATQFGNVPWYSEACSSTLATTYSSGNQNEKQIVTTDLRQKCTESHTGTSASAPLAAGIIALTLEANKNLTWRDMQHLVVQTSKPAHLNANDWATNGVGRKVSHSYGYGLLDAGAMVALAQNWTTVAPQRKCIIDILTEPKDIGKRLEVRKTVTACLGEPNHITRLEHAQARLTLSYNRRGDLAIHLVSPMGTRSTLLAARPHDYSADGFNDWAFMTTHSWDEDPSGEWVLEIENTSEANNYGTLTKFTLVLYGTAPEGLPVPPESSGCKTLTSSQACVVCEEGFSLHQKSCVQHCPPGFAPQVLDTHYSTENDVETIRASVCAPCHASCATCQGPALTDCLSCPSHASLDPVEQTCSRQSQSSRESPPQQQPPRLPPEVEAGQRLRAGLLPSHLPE
UniProt P09958, whole entry, looked up: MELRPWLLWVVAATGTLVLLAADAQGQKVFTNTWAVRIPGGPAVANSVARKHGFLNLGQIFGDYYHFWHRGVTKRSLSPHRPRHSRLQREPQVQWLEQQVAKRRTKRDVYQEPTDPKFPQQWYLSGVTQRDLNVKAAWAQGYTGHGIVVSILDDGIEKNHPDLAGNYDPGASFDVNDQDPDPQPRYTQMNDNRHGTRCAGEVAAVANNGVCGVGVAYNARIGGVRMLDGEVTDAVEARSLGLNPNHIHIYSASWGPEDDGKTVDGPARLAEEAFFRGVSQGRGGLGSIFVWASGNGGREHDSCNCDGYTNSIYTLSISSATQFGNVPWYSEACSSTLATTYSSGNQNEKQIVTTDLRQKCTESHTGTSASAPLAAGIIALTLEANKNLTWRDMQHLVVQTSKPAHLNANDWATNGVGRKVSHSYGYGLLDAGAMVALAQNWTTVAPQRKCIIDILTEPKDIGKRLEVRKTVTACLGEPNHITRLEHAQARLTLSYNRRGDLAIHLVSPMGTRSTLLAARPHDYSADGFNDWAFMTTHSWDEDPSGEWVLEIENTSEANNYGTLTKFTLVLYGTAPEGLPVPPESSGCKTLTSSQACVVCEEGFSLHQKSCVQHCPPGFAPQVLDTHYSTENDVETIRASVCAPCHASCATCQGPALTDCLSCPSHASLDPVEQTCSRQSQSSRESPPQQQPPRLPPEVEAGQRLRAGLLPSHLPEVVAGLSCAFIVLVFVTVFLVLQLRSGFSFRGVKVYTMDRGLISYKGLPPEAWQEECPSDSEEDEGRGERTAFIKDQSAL
UniProt P45983, 1-384 isoform 3: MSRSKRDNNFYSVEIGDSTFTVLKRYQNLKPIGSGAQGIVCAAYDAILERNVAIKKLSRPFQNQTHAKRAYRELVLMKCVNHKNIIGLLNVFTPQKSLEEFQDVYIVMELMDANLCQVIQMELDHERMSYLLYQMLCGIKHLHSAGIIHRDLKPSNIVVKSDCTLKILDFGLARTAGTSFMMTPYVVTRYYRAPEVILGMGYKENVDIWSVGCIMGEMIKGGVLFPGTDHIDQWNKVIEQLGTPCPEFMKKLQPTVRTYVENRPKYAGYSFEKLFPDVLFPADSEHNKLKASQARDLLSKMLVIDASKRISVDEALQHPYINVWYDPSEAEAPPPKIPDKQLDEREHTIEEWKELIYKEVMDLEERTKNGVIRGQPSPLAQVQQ
UniProt Q9BY41, whole entry: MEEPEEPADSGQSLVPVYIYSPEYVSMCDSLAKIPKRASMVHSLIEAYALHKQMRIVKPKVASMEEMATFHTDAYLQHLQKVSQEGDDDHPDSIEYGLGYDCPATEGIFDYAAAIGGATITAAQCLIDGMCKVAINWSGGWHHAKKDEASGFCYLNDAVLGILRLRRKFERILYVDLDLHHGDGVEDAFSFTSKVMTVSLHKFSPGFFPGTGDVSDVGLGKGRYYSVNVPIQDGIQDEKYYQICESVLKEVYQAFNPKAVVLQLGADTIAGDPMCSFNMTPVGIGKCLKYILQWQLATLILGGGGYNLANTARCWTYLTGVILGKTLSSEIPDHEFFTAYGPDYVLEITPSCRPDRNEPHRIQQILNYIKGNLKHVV
UniProt P42866, whole entry: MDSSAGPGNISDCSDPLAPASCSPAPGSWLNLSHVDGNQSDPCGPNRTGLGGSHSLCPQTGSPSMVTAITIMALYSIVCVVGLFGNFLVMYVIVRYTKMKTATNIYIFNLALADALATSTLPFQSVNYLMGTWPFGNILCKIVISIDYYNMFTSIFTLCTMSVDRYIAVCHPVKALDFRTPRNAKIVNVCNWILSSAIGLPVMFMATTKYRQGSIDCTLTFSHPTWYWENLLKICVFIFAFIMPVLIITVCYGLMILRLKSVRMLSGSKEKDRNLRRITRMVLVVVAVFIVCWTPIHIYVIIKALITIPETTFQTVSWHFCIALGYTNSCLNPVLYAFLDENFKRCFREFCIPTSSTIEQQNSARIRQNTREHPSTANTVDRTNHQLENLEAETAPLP
UniProt Q07440, whole entry P104K/C113S, looked up: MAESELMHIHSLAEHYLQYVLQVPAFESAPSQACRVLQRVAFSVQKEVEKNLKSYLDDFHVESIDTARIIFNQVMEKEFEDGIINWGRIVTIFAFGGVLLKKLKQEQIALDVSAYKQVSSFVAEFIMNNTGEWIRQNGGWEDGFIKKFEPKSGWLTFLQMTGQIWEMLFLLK
UniProt O00411, 42-1230 limits assumed: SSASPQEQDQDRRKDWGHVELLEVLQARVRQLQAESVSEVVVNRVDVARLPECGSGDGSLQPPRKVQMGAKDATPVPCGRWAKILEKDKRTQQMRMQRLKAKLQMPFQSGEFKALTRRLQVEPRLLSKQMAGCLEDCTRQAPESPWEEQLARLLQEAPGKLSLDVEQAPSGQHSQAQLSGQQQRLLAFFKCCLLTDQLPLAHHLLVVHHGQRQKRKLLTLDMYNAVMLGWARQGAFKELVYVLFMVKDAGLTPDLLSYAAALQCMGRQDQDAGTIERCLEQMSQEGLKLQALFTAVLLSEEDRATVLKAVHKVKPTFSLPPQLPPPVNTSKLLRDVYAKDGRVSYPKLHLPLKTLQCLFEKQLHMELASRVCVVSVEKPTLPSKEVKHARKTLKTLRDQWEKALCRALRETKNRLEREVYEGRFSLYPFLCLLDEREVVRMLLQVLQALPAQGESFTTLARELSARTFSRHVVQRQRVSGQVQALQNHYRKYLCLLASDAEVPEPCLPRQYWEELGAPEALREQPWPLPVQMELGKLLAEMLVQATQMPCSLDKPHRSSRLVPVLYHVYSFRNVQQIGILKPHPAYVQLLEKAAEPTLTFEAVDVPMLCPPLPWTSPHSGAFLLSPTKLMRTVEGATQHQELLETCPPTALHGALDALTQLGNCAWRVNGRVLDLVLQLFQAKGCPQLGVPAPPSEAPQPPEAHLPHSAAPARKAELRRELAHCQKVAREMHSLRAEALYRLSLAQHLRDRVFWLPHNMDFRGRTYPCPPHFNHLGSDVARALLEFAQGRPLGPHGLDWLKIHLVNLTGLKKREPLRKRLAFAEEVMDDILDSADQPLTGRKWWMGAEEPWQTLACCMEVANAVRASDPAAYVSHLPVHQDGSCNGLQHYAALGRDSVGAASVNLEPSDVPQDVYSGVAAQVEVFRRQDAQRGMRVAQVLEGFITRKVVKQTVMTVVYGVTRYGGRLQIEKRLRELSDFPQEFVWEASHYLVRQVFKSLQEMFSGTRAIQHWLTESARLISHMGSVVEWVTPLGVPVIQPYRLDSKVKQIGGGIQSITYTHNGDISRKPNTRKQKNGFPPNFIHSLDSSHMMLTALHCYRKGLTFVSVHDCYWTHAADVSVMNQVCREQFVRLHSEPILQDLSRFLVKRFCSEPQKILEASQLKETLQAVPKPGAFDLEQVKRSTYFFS
UniProt O08914, whole entry: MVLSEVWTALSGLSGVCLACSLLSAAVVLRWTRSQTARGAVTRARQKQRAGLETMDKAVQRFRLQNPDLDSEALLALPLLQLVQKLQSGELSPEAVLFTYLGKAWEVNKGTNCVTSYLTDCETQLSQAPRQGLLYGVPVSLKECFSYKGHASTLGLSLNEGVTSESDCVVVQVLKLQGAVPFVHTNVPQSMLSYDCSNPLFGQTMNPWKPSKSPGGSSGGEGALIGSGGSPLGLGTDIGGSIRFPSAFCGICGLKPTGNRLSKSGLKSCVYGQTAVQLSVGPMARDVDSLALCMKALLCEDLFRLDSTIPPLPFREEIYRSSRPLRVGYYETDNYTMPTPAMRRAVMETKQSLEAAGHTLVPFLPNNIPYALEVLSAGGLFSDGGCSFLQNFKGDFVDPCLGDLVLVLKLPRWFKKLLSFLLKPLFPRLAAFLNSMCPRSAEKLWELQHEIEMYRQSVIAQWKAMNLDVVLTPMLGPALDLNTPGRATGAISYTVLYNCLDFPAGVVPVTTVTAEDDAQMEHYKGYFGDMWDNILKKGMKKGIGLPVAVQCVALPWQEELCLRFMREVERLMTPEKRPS
UniProt Q5HH38, whole entry: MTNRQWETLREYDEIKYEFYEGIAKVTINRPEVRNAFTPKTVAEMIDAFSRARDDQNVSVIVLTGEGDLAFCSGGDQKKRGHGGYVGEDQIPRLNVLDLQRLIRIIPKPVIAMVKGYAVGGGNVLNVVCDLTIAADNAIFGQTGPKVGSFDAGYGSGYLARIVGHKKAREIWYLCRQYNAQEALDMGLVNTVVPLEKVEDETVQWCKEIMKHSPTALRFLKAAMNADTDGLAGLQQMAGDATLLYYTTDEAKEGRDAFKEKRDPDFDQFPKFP
UniProt Q9UBN7, whole entry: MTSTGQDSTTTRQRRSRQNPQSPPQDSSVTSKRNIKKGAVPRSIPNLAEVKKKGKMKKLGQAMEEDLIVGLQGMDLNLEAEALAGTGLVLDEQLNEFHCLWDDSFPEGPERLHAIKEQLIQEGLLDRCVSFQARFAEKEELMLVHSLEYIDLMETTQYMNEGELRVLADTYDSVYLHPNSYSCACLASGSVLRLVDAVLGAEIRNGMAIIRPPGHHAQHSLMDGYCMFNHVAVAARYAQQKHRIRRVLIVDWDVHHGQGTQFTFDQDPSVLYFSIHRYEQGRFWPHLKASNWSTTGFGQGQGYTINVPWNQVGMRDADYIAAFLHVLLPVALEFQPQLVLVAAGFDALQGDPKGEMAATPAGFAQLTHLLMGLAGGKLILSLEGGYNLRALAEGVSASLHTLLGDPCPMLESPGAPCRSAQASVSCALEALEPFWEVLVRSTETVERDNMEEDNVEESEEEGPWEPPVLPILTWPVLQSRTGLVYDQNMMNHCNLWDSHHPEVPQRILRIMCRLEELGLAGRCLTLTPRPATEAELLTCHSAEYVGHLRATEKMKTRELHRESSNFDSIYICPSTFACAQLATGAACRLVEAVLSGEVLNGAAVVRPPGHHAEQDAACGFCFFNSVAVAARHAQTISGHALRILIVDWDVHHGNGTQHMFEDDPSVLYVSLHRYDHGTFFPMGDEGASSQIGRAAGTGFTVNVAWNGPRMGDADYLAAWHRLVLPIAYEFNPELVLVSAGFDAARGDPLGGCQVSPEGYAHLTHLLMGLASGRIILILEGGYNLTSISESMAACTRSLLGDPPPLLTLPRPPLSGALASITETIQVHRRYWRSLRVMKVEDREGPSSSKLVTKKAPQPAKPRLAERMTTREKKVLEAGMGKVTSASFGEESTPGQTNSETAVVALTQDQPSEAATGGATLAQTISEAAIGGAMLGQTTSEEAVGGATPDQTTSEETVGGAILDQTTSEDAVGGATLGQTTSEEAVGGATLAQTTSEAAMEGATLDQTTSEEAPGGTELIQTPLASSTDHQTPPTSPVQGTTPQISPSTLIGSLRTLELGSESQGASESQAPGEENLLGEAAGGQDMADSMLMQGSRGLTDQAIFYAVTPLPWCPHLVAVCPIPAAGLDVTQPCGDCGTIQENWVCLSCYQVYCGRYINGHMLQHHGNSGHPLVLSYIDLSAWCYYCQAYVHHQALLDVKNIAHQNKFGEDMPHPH
UniProt P0A6K3, whole entry: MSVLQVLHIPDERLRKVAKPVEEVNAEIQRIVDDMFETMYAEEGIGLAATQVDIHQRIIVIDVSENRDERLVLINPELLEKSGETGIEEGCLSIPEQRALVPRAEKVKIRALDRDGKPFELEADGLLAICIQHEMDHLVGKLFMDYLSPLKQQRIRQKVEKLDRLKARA

Compound	target	test	system	conditions	how to read	quantity	result
COc1ccc(CN[C@@H]2CO[C@H](C(c3ccccc3)c3ccccc3)C[C@H]2O)cc1	Beta-2 adrenergic receptor (ADRB2, Homo sapiens, UniProt P07550)	radioligand binding, radioligand displacement		10 µM		inhibition	-3.8%
CC1(C)SCN(C(=O)[C@@H](O)[C@H](Cc2ccccc2)NC(=O)COc2ccccc2)[C@@H]1C(=O)N[C@H]1c2ccccc2C[C@H]1O	Gag-Pol polyprotein, protease (gag-pol, Human immunodeficiency virus type 1 group M subtype B, UniProt P04585, L521I/L551I/Q495K)	isothermal titration calorimetry		concentration not given, pH 5.0, 25 °C, 2% DMSO		ΔG of binding	-10.81 ± 0.033 kcal/mol
O=[N+]([O-])c1cc(N=Nc2c(O)ccc3cc(S(=O)(=O)O)ccc23)c(O)c([N+](=O)[O-])c1	Bcl-2-related protein A1 (Mus musculus, UniProt Q07440, C113S/P104K)	binding, inhibitor, fluorescence polarization competition		100 µM, overnight, 20 °C, together with: FITC-Noxa peptide 375 nM	reference: peptide without protein	Noxa peptide bound	56.8%
O=C(Oc1c(Br)cc(Br)cc1CNC(=O)c1ccccc1[N+](=O)[O-])c1ccccc1Cl	lasR	thermal stability, differential scanning fluorimetry				melting temperature	70.5 ± 0.3 °C
C[C@H](NC(=O)[C@H](CCC(N)=O)NC(=O)[C@H](CCCNC(=N)N)NC(=O)[C@H](CCCCN)NC(=O)[C@H](CCC(=O)O)NC(=O)[C@H](CCCNC(=N)N)NC(=O)[C@H](CCCCN)NC(=O)[C@H](Cc1cnc[nH]1)NC(=O)c1ccccc1N)C(=O)N[C@@H](CCCCN)C(=O)N[C@@H](Cc1cnc[nH]1)C(=O)N[C@@H](CCC(N)=O)C(=O)NCCNc1ccc([N+](=O)[O-])cc1[N+](=O)[O-]	FURIN	substrate		pH 7		Km	2.7 µM
CC[C@H](C)[C@H](NC(=O)[C@H](CC(=O)O)NC(C)=O)C(=O)N[C@@H](CC(=O)O)C(=O)N[C@@H](CCC(=O)O)C(=O)N[C@@H](Cc1cc(=O)oc2cc(OP(=O)(O)O)ccc12)C(=O)N[C@@H](CC(C)C)C(=O)N[C@@H](C)C(=O)N[C@@H](C)C(N)=O	Tyrosine-protein phosphatase non-receptor type 2 (PTPN2, Homo sapiens, UniProt P17706)	peptide hydrolysis, substrate				kcat	92 ± 5 s⁻¹
COC(=O)[C@@]1(C)C=C(C(=O)Nc2ccc(C)c(C(=O)Nc3ccc(Nc4nccc(-c5cccnc5)n4)cc3)c2)C(=O)CC1	MAPK8	kinase activity, inhibitor		0.1829 µM, unit not given, together with: 10 mM GSH	reference: DMSO	remaining activity	0.13
O=C(N[C@@H]1CC[C@@]2(O)[C@H]3Cc4ccc(O)c5c4[C@@]2(CCN3CC2CC2)[C@H]1O5)c1ccnc(Cl)c1	Kappa-type opioid receptor (Oprk1, Mus musculus, UniProt P33534)	radioligand binding	CHO	together with: [3H]diprenorphine	reference: Ki δ over Ki κ	selectivity ratio	4020
O=c1ccn([C@@H]2O[C@H](COP(=O)(O)OP(=O)(O)OP(=O)(O)O)[C@@H](O)[C@]2(F)Br)c(=O)[nH]1	DNA-directed RNA polymerase, mitochondrial (POLRMT, Homo sapiens, UniProt O00411)	substrate		100 µM, 2 h	reference: natural rNTP	incorporation	7.4%
CC(=O)NCCCC[C@H](NC(C)=O)C(=O)N[C@@H](Cc1c[nH]c2ccccc12)C(N)=O	HDAC8	deacetylation, substrate		25 °C, together with: 150 nM enzyme		kcat/KM	3.5 ± 0.6 M⁻¹ s⁻¹
O=C(NC1CCCCC1)Oc1ccc(O)c(-c2ccccc2)c1	Fatty-acid amide hydrolase 1 (Faah, Mus musculus, UniProt O08914)	enzyme activity, inhibitor	mouse, brain ex vivo	intraperitoneal		ID50	0.16 mg/kg
O=S(=O)(O)c1ccc2c(c1)Cc1cc(S(=O)(=O)O)ccc1-2	OXA-48	enzyme activity				ligand efficiency	0.38
C#CCN1CC[C@]23c4c5ccc(O)c4O[C@H]2[C@H](NC(=O)c2ccc(N=[N+]=[N-])c([125I])c2)CC[C@@]3(O)[C@H]1C5	Oprm1	binding	CHO cell membranes	0.1 nM, 25 °C		dissociation half-life (slow phase)	2.4 h
COc1cccc2c(N3CCC(CCP(=O)(O)O)CC3)ncnc12	Ectonucleotide pyrophosphatase/phosphodiesterase family member 1 (Enpp1, Mus musculus, UniProt P06802)	cGAMP degradation	mouse plasma			IC95	40 nM
COC(=O)[C@@H](CS)N1C(=O)c2ccc(N(C)C)cc2C1=O	Metallo-beta-lactamase type 2 (blaNDM-1, Klebsiella pneumoniae, UniProt C7C422, A233V)	probe		10 µM, NDM-6 variant, probe:enzyme 1:3, together with: ZnSO4 10 µM	reference: probe alone	fluorescence increase	13 fold
COC(=O)[C@@]1(C)C=C(C(=O)Nc2cc(C(=O)Nc3ccc(Nc4nccc(-c5cccnc5)n4)cc3)ccc2C)C(=O)CC1	MAPK8	kinase activity, inhibitor		0.5487 µM, unit not given, together with: 10 mM GSH	reference: DMSO	remaining activity	0.101
CC(c1ccc(-c2ccsc2)cc1)n1ccnc1 (stereo not shown)	cyp121	binding				Kd	16900 ± 2200 nM
CC(C)(COP(=O)(O)OP(=O)(O)OC[C@H]1O[C@@H](n2cnc3c(N)ncnc32)[C@H](O)[C@@H]1OP(=O)(O)O)[C@@H](O)C(=O)NCCC(=O)NCCSC(CC(=O)c1ccc(Cl)cc1)C(=O)O (stereo partly shown)	1,4-dihydroxy-2-naphthoyl-CoA synthase (menB, Staphylococcus aureus, UniProt Q5HH38)	isothermal titration calorimetry			reference: CoA binding	ΔΔG	1.3 kcal/mol
O=C(NCc1cc(Br)cc(Br)c1OC(=O)c1ccccc1[N+](=O)[O-])c1ccccc1Cl	lasR	thermal stability, differential scanning fluorimetry				melting temperature	62.6 ± 0.2 °C

Compound	target	test	system	conditions	how to read	quantity	result
CC(=O)N[C@@H](CCCNC(=N)N)C(=O)N[C@H](C(=O)N[C@@H](CCCNC(=N)N)C(=O)N[C@@H](CCCNC(=N)N)C(=O)Nc1ccc2c(C)cc(=O)oc2c1)C(C)C	FURIN	substrate		pH 7		kcat	0.7 s⁻¹
CC(C)c1ccc(NC(=O)CSc2nnc(-c3cccnc3)n2C2CC2)cc1	Orco	calcium mobilization, agonist	HEK293 expressing Drosophila Orco		reference: VUAA1	efficacy	178%
O=S(=O)(O)c1ccc(-c2ccc(S(=O)(=O)O)cc2)cc1	OXA-48	enzyme activity				ligand efficiency	0.41
C=CCN1CC[C@]23c4c5ccc(O)c4O[C@H]2[C@H](NC(=O)c2ccc(N=[N+]=[N-])c([125I])c2)CC[C@@]3(O)[C@H]1C5	Oprm1	binding	CHO cell membranes	0.1 nM, 25 °C, together with: levallorphan 10 µM		rapidly dissociating fraction	53%
CC(=O)NCCCC[C@H](NC(C)=O)C(N)=O	Protein deacetylase HDAC6 (HDAC6, Homo sapiens, UniProt Q9UBN7)	deacetylation, substrate		25 °C, together with: 10 to 50 nM enzyme		kcat	0.123 ± 0.018 s⁻¹
C=Cc1ccc(NC(=O)CSc2nnc(-c3cccnc3)n2C2CC2)cc1	Orco	calcium mobilization, agonist	HEK293 expressing Drosophila Orco		reference: VUAA1	efficacy	126%
CO[P@@]1(=O)OC[C@H]2COC(=O)C2=C(C)O1 (relative stereo)	Acetylcholinesterase (ACHE, Homo sapiens, UniProt P22303)	enzyme activity, inhibitor				k-2	0 min⁻¹
CCCC(=O)NC1CCCC1	HTH-type quorum-sensing regulator RhlR (rhlR, Pseudomonas aeruginosa, UniProt P54292)	reporter gene, agonist	Escherichia coli JLD271 reporter	10 µM	reference: BHL 1 mM	activation	0%
Cc1nc2c[nH]c(/C=C/C=C/c3ccc(N(C)C)cc3)cn-2c1=O	Amyloid-beta precursor protein, Aβ42 oligomers (APP, Homo sapiens, UniProt P05067)	oligomer binding		15 µM, amyloid-beta oligomers	reference: probe without protein	signal enhancement	42.4 ± 3.3 fold
COc1ccc2c(c1)c(CC(=O)NCCCCNC(=O)CCC(=O)OC1c3cc4c(cc3C(c3cc(OC)c(OC)c(OC)c3)C3C(=O)OCC13)OCO4)c(C)n2C(=O)c1ccc(Cl)cc1 (stereo not shown)	Prostaglandin G/H synthase 2 (Ptgs2, Mus musculus, UniProt Q05769, R106Q)	enzyme activity, inhibitor			reference: mutant R120Q over wild type	potency increase	3 fold
COc1c(Br)cc(Br)cc1CNC(=O)c1ccccc1[N+](=O)[O-]	lasR	reporter gene, agonist	Escherichia coli JLD271 lasI-lacZ reporter		reference: OdDHL	maximum efficacy	85%
Nc1nnc(SSc2nnc(N)s2)s1	Peptide deformylase (def, Escherichia coli, UniProt P0A6K3)	binding				ΔΔG isomerization step	-3.2 kcal/mol
O=C(NCc1cc(Br)cc(Br)c1OC(=O)c1ccccc1[N+](=O)[O-])c1ccccc1[N+](=O)[O-]	lasR	reporter gene, agonist	Escherichia coli JLD271 lasI-lacZ reporter		reference: OdDHL	maximum efficacy	93%
CC(=O)NCCCC[C@H](NC(=O)[C@H](CCCCNC(C)=O)NC(=O)[C@H](Cc1c[nH]cn1)NC(=O)[C@H](CCCNC(=N)N)NC(C)=O)C(N)=O	HDAC8	deacetylation, substrate		25 °C, together with: 150 nM enzyme		kcat	0.1 ± 0.03 s⁻¹
CC(=O)Oc1c(Br)cc(Br)cc1CNC(=O)c1ccccc1[N+](=O)[O-]	lasR	thermal stability, differential scanning fluorimetry				melting temperature	54.8 ± 0.3 °C
CN1C(=O)CCC(N2Cc3cc(-c4nc5ccccn5c4NC(C)(C)C)ccc3C2=O)C1=O (stereo not shown)	WEE1/CRBN (Homo sapiens, UniProt P30291+Q96SW2)	degrader, HiBiT	Jurkat	5 h		Dmax	45%
CC(C)C[C@H](NC(=O)[C@H](CC(N)=O)NC(=O)c1ccccc1N)C(=O)N[C@@H](CCCNC(=N)N)C(=O)N[C@@H](CCCNC(=N)N)C(=O)N[C@@H](CCCNC(=N)N)C(=O)N[C@@H](CCCNC(=N)N)C(=O)N[C@@H](CC(=O)O)C(=O)N[C@@H](CC(C)C)C(=O)N[C@H](C(=O)N[C@@H](CC(=O)O)C(=O)N[C@@H](CCC(N)=O)C(=O)NCCNc1ccc([N+](=O)[O-])cc1[N+](=O)[O-])C(C)C	FURIN	substrate		pH 7		Km	0.33 µM
CCC(CC)(c1ccc(-c2ccc(F)cc2)cc1)n1ccnc1	cyp121	binding				Kd	2500 ± 570 nM
